Assay results from different studies.
Each numbered part is a random draw from the data of one study; scales do not carry over between parts.

Block 1 — observed: enzyme activity; concentration: 10 µM
Target: Replicase polyprotein 1ab, 3C-like proteinase (rep, Middle East respiratory syndrome-related coronavirus, UniProt K9N7C7)
SMILES | inhibition
O=C(O)c1cc(O)c2c(c1)[C@H]([C@H]1c3cc(C(=O)O)cc(O)c3C(=O)c3c(O[C@@H]4O[C@H](CO)[C@@H](O)[C@H](O)[C@H]4O)cccc31)c1cccc(O[C@@H]3O[C@H](CO)[C@@H](O)[C@H](O)[C@H]3O)c1C2=O | 42%
CN(C)C(=S)SSC(=S)N(C)C | 48%
O=c1cc(-c2ccc(O)cc2)oc2cc(O)cc(O)c12 | 17%
Oc1cc2c(cc1O)[C@H]1c3ccccc3CN[C@@H]1CC2 (racemic) | 19%

Block 2 — technique: protein binding microarray; molecule type: double-stranded DNA, one strand shown; matrix: in vitro; concentration: not given; relative to: not given; direction: higher = stronger binding
Target: Histone acetyltransferase KAT6A, winged helix 2, GST fusion (KAT6A, Homo sapiens, UniProt Q92794, residues 85-181)
Notes: 8-mer, flanks averaged, mean of 2 arrays, mostly near background
Target sequence (chain): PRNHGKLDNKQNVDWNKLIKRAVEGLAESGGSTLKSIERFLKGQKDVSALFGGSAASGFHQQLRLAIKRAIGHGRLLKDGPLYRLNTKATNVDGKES
Sequence | E-score
GGGCTAAC | -0.0412
ACCTGGCA | 0.102
ACTATAGT | -0.0888
GGAAAGCC | 0.0684
CCAGAGTA | -0.0232
AAGCGTCG | 0.0135
TAATGCAA | -0.144
ATGGCCTG | 0.199

Block 3 — action: inhibitor; concentration: 20 µM
Target: Replicase polyprotein 1ab, nsp13 helicase (rep, Severe acute respiratory syndrome coronavirus 2, UniProt P0DTD1)
SMILES | inhibition [%]
Cc1cccc2c1CC[C@H](CN1CCC(c3c(Cl)cccc3Cl)CC1)C[C@@H]2O | 0.68
Nc1ncnc2n[nH]c(Nc3ccc(F)cc3)c12 | 3.03
CN1CCC[C@@H]1Cc1c[nH]c2ccc(CCS(=O)(=O)c3ccccc3)cc12 | 6.35
CC(=O)Oc1cccc(C(=O)O)c1OC(C)=O | 1.21
CC(C)(C)Nc1nc(Nc2ccc(C(N)=O)cc2)cc(N)c1C#N | 3.03
CNCCCOc1cc(F)c(-c2c(Cl)nc3ncnn3c2N[C@@H](C)C(F)(F)F)c(F)c1 | 8.19
CC/C=C(\C(=O)N[C@@H]1C(=O)N2C(C(=O)OCOC(=O)C(C)(C)C)=C(COC(N)=O)CS[C@H]12)c1csc(N)n1 | 7.16
Cc1ccc(NC(=O)C2(c3ccc4c(c3)OC(F)(F)O4)CC2)nc1-c1cccc(C(=O)O)c1 | -1.31
COC[C@@H](c1ccc(C(F)(F)F)cc1)N1CCN(C2(C)CCN(C(=O)c3c(C)ncnc3C)CC2)C[C@@H]1C | 2.14
CC(=O)O[C@@H]1CC[C@@]2(C)[C@@H](CC[C@]3(C)[C@@H]2C(=O)C=C2[C@@H]4[C@@H](C)[C@H](C)CC[C@]4(C)CC[C@]23C)[C@@]1(C)C(=O)O | -2
COC(=O)C1=C(C)NC(C)=C(C(=O)NCCCN2CCC(c3ccccc3)(c3ccccc3)CC2)C1c1ccc([N+](=O)[O-])cc1 (stereo not drawn) | 0.38
CCCCc1ccc(C(N)=O)nc1 | 25.2
CN([C@@H](Cc1ccc(OS(=O)(=O)c2cccc3cnccc23)cc1)C(=O)N1CCN(c2ccccc2)CC1)S(=O)(=O)c1cccc2cnccc12 | 0.83
CC(=O)Oc1ccccc1C(=O)Nc1ncc([N+](=O)[O-])s1 | 3.07
O=C(O)CNC(=O)c1nc(Cl)c2ccccc2c1O | 0.48
Cc1ccc(=O)n(-c2ccccc2)c1 | 2.27
CCOc1cc(C(C)(C)C)ccc1C1=N[C@@](C)(c2ccc(Cl)cc2)[C@@](C)(c2ccc(Cl)cc2)N1C(=O)N1CCN(CCCS(C)(=O)=O)CC1 | 7.37
CC(C)[C@@H](CS(=O)(=O)C(C)C)N1C(=O)[C@@](C)(CC(=O)O)C[C@H](c2cccc(Cl)c2)[C@H]1c1ccc(Cl)cc1 | 8.1
O=C1C[C@@H](c2ccccc2)Oc2cc(O)cc(O)c21 | 1.15
O=C(OCCO)c1ccccc1O | -0.49
CCOC(=O)CCNc1cc(N2CCc3ccccc3CC2)nc(-c2ccccn2)n1 | -3.07
CCC(=O)NO | 3.46
C[C@@H]1CCO[C@H]2Cn3cc(C(=O)NCc4ccc(F)cc4F)c(=O)c(O)c3C(=O)N12 | -1.54
C[C@H]1CN(C[C@H](Cc2ccccc2)C(=O)NCC(=O)O)CC[C@@]1(C)c1cccc(O)c1 | -0.49
COc1ccc(CC2NCCc3cc(OC)c(OC)cc32)cc1OC (stereo not drawn) | 2.71

Block 4 — technique: RNA Bind-n-Seq; molecule type: RNA; matrix: in vitro; concentration: 365 nM; relative to: no-protein control; direction: higher = stronger binding
Target: RNA binding protein fox-1 homolog 2, RRM domain, GST-SBP tag (RBFOX2, Homo sapiens, UniProt O43251-10, residues 100-194)
Notes: natural RNA segment, single round, ends assumed
All sequences stand within: GGGAGUUCUACAGUCCGACGAUC … UGGAAUUCUCGGGUGCCAA
Residues (chain): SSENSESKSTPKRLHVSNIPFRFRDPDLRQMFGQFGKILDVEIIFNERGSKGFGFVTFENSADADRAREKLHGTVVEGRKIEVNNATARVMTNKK
Sequence | RBNS enrichment (R)
AUUUUAAGGCAAAACAGUGUUUACUGUGAUGGGCAGAACAGCCUUUUGUAUCUAGGAGUCCAUUUGAGUUCUUUCCAAUAUUUCCAUAUCGUUCAUAAAUGUGUCUGGGG | 0.574
UUGAGUUUGUAGCUUAGAAUUGGGAGGAUACUUAACAUCUGGAAGACAAGUUCAUUUCAUCUUGAGAUCAUGGUGAAAUAUUUUGGAUAUAUAAAUUCCUUAAGCUAUUG | 0.326
CUAUUCUCUUCCAGAGUUUUCUUCAACUUCCAUCUUAUAAACCAAGGUAUUUAAAUUGUUCAUCUUAGUUGACUUUCCCAAGCCAUACUUCUAAAACAAAACACCAGCCC | 0.575
AGCAUCAGGUGUAGGAGGCCUUGAGUCUGUGAGACCCCCGGGGCCAGCACCAAGACUCACGGAAAGACUAGACUGUGUGGGUAUCUGAAACAAAGCCCACAGGAUACGCC | 0.644
AUCUCAAAAAAAAAGAAAAGAAGGUCCAGCUUUUGGAUUCAAUGAGUGGGAAAUACAUUGUGCCUUUCUCUAGAUGUGAUACGUUAUACCAAAAUCUUUGUAGUGUGCAG | 0.689
AGCUGCCCACCCAACCUGGUCUUCACACCAGAUUGCACAGGAUACUGGGUCUUGUCUAUCUUGAUGGAGAAGAGGGGUUCCUGCCCAGGAUCUUACAACACAGCAAGUAG | 0.567
UGAAAUUCAAAUUCUCGUUUAGAAGUGAAAGCUGUCAGGUUGAUAGCAAGCAUGCACAUCAAAUUCACCAGAAGUACAACCCAUCGGCGCAGUCAGAGGAUGGAGUCUGA | 27.4
ACCCCUGGGUUGUGGAGGGAAAUUGGCUCAGAGAUGGACAACCUGGCAACUGUGAGUCCCUGCUUCCCGACACCAGCCUCAUGGAAUAUGCAACAACUCCUGUACCCCAG | 0.6

Block 5 — technique: universal PBM; molecule type: double-stranded DNA, one strand shown; matrix: in vitro; concentration: 600 nM; direction: higher = stronger binding
Target: Sal-like protein 4, full length isoform A (SALL4, Homo sapiens, UniProt Q9UJQ4, residues 1-1053)
Chain of UniProt Q9UJQ4 (whole entry, looked up): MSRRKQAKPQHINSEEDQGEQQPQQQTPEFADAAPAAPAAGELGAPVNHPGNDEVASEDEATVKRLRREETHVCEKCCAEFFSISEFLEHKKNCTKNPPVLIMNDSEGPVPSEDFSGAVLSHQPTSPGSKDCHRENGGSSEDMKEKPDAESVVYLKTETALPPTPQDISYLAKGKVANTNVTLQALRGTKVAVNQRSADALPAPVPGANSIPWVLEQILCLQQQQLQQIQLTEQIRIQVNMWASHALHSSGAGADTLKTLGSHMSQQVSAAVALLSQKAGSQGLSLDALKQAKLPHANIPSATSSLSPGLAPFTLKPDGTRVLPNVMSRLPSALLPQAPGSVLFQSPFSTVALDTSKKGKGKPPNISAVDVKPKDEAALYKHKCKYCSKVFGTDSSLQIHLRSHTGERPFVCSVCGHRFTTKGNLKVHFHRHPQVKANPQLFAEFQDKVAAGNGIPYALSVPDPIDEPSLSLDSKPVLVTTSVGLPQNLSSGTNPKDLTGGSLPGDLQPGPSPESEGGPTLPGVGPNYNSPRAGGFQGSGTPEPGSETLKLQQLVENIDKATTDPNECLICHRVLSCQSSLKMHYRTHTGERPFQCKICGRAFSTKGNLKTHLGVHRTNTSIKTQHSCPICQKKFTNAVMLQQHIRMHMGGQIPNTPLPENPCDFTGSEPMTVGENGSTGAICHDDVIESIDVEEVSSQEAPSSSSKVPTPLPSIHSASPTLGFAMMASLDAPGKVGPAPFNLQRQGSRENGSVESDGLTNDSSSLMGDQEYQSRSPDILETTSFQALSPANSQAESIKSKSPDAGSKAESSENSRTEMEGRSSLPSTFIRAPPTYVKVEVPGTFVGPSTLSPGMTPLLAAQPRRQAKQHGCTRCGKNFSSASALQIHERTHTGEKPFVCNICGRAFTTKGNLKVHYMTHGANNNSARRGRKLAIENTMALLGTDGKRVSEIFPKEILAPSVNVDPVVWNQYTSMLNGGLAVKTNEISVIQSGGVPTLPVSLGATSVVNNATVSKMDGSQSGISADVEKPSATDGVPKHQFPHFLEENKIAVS
Notes: 8-mer, flanks averaged, mean of replicates
Sequence | E-score
GAAATCCA | 0.157
AACCAAAC | -0.146
CAATCGCA | 0.0276
ATCTTATC | 0.191
AAGGAGCC | -0.236
ATCTAACC | 0.0198
AAGGTCCC | -0.256
AGACTGGG | -0.127

Other studies, line by line
SMILES | tested on | assay | test system | conditions | how to read | quantity | result
COc1ccccc1OCC(O)CO (stereo not drawn) | HEK-293T | pseudovirus infection, FDA-approved drug library screen | VSV pseudotyped with SARS-CoV-2 spike | 10 µM, 16 h | relative to: vehicle-treated | GFP-positive cells | 83.9%
C[S+](C)[O-] | Vesicular stomatitis virus | pseudovirus infection, FDA-approved drug library screen | – | concentration not given, SARS-CoV-2 spike pseudotype | relative to: vehicle | GFP-positive cells | 87.6%
Cl.N=C(N)NN | HEK-293T-ACE2 | – | – | concentration not given | relative to: vehicle | cell number | 104%
Cc1nccn1CC1CCc2c(c3ccccc3n2C)C1=O.Cl (stereo not drawn) | HEK-293T-ACE2 | – | – | concentration not given | relative to: vehicle | cell number | 96.5%

Excerpt of the above (block 5):
Sequence | E-score
GAAATCCA | 0.157
AACCAAAC | -0.146
CAATCGCA | 0.0276
ATCTTATC | 0.191
AAGGAGCC | -0.236
